# Results of several laboratories.
# Numbered parts are unrelated; each lists some results of a single study. Changes are numbered by the printed parent chain.
# Sequence of UniProt Q8LAL2 (whole entry, looked up): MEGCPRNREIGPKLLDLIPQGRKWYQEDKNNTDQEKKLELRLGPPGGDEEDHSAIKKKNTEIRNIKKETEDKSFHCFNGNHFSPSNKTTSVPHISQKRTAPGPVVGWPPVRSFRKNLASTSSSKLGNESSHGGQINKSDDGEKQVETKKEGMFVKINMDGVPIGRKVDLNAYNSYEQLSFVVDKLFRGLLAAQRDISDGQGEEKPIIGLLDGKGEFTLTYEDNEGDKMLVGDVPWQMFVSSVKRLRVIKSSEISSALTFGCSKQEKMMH
# Sequence of UniProt Q9FX25 (whole entry, looked up): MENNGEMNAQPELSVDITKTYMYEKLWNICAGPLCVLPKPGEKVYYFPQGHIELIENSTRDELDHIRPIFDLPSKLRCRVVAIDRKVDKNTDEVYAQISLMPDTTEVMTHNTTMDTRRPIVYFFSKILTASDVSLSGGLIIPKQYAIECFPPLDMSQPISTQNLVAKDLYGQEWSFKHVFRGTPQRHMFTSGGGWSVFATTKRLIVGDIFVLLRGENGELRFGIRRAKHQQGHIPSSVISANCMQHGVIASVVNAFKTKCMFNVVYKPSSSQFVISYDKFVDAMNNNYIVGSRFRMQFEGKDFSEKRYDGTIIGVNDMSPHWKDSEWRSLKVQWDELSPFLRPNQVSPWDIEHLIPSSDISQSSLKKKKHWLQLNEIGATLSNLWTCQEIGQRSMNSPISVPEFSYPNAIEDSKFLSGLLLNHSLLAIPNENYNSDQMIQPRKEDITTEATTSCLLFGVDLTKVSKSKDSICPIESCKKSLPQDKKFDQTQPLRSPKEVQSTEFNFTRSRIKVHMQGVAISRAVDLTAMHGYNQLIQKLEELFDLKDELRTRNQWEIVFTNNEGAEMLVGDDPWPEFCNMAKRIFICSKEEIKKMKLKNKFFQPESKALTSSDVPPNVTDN
# Sequence of UniProt Q93WC4 (whole entry, looked up): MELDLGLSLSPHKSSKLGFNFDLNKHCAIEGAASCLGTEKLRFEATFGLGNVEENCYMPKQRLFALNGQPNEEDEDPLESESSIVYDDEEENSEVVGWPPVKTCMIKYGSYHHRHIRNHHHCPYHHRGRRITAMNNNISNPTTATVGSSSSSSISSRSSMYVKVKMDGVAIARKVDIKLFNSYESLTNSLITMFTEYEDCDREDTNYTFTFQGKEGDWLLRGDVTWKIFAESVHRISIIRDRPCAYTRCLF

# Series 1
# Target: Fragile X messenger ribonucleoprotein 1, C-terminal low-complexity region (Fmr1, Mus musculus, UniProt P35922)
# Method: RNA Bind-n-Seq
# Molecule type: RNA
# Matrix: in vitro
# Concentration: 200 nM
# Notes: whole 134-nt RNA, ends assumed
# Together with: 150 mM LiCl
# Baseline: input library
# Direction: higher = stronger binding
# All molecules: 7-deaza-guanosine replaces G
Strand,log2 enrichment
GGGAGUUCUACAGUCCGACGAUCUCCUUUCUGUCAUUUUACACCCACAGUUGAAGAUUCCUGUCUCUGGAUCCAAAUCAGAGGGCCUUCUCUACGUCCACUCAUCCAGAGGUGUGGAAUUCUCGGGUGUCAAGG,1.64
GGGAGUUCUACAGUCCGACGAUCGCAGGAAGUAAAAACAAAUGGAAAUGCUUCGGAUAGUGGCAGGGGUGGGGGUUGCUAAGGAAAGGGUAAAAUGGGAGUGGGUAAAGAGUUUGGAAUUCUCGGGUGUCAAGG,1.71
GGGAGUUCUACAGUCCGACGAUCCAAGUCCUGUGCUACACAUCGUAUGUACCGAAUCGGUUUGGGUUUGGGGUUUGGGAAAGUAUUAUGUUACGCCGUUCGGAUCUGCACUUCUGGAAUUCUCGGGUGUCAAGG,-1.55
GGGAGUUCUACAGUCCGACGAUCGUCCUGUGCUACACAUCGUAUGUACCGAAUCGGGUUUUUGGUUUUUGGGGUUUUUGGGAAAGUAUUAUGUUACGCCGUUCGGAUCUGCACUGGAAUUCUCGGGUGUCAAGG,-0.986
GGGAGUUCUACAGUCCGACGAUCACCAUGCUGGUGGGCAUCUUUGGGAAGUGGGGCAAGGGGGGGAUAGGGAGGGGGGUAACACUUUGGGAACAGGUGGUCCCAGGUCGUUUCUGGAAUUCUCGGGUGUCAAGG,1.32
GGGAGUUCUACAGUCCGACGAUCAGUCCUGUGCUACACAUCGUAUGUACCGAAUCGGGGUUUGGGGAAAAAGGGGUGGGGAAAGUAUUAUGUUACGCCGUUCGGAUCUGCACUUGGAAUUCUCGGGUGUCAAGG,-1
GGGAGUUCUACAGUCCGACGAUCAAGUCCUGUGCUACACAUCGUAUGUACCGAAUCGGGCCCCGGGCCCCGGCCCCGGGAAAGUAUUAUGUUACGCCGUUCGGAUCUGCACUUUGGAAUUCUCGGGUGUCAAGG,-2.28
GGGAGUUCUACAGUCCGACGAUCUCCUCAAGUCCUGUGCUACACAUCGUAUGUACCGAAUCGGUGGUGGGUGGGAAAGUAUUAUGUUACGCCGUUCGGAUCUGCACUUCCAGCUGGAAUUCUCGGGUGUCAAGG,1.15

# Series 2
# Partner: ARF20 484-590 (Arabidopsis thaliana, UniProt Q9C7I9)
# Method: two-hybrid
# Baseline: out of 4 tests
# Direction: higher = firmer interaction
# Construct (chain): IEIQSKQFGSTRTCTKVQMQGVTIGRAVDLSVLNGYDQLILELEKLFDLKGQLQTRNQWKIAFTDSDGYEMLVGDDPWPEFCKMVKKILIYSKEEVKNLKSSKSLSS
Substance,positive tests
"IAA26 (Arabidopsis thaliana, UniProt Q8LAL2)",0
"ARF13 (Arabidopsis thaliana, UniProt Q9FX25)",0
"IAA29 (Arabidopsis thaliana, UniProt Q93WC4)",0

# Series 3
# Target: RNA binding protein fox-1 homolog 2, RRM domain, GST-SBP tag (RBFOX2, Homo sapiens, UniProt O43251-10, residues 100-194)
# Method: RNA Bind-n-Seq
# Molecule type: RNA
# Matrix: in vitro
# Concentration: 365 nM
# Notes: natural RNA segment, single round, ends assumed
# Baseline: no-protein control
# Direction: higher = stronger binding
# Construct (chain): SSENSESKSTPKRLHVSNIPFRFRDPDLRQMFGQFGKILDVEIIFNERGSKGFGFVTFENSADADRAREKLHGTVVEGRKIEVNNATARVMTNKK
Strand,RBNS enrichment (R)
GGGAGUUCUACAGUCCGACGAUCCUUAUAUUGGUGAGCAUGAGGGAGGAGGAAUCAUGGCUACCUUCUCCUGGCCCUGCGUUCUUAAUAUUGGGCUAUGGAGAGAUCCUCCUUUACCCUCUUGAAAUUUCUUAUGGAAUUCUCGGGUGCCAA,0.776
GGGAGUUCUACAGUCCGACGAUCACGAUGAUAUUGCUGAUCAAAAGUUAUGAACAGAAAUAAGAGUGACAGCUAGCUAAGUCAAGCUUUUCAAUAGAGGAGAAAAUAAAGAUGGCGACAGGUUGGCUUAGGUGUGGAAUUCUCGGGUGCCAA,0.514
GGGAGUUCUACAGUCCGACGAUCCAUAUGAAUAACCAUUUAUAUGUGUUUUGCUUAAAGUAUUCCAAUGCCUAUUUUCCAAGCACAGUUCUGCCCCCCGGUUGACUUUUAUGCCACGUGUGCUUCAUGAUGGAUGGAAUUCUCGGGUGCCAA,0.418
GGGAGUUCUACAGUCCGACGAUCAAAGUGAGAAUUCAAGCACAUUUCUUUCCUUUGCUAUGUAGGGAGGCUGCUGCCUUCCCAGAGCCUGGAGGCAGCUCUGCUGUUCAGCCCCAAACUUUGUUUACACUGCUUGGAAUUCUCGGGUGCCAA,0.404
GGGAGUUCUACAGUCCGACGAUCAGAACACUUUUGAUCCAUCACAGCAGGUCACCAGCCAUGACAAGGCUCAAUCUAGGACUCUCAGCUUCCUGCGCUGCUGGACACAUUGACCUCUGUGCAAACAUUGUAGAUGGAAUUCUCGGGUGCCAA,0.29
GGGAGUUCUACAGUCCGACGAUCUCACCUACGGAUUAUUUCUCUUUCUCGCCUGCCCUUAGGAUCUUAAGCUAAAGGGCACUGUUUAUUUCAUGAAACCUUUAAACAUGUCAAAAUGUUUAGUAUAAGAACACUGGAAUUCUCGGGUGCCAA,0.445
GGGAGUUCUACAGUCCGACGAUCAGGUGGAUGGGUUGCUUUAUAAAUGUGCCUGGUGCAUGAGAAACUCUUGUUUCAGCUCUUGGCCUUUACCCAUGACUCAGCCUGGGGGCUGGUGCCGGCCUUGCCUGCAGUGGAAUUCUCGGGUGCCAA,2.14
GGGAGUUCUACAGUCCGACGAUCUGUGCAGGUGCUGUGGUGGGAAGCACAAAGCCGCCGCUGACUCGGUUCCCCUACUUUCUGCUUCUCCAUCCACGGCCACGGGCAACUUGUCUCUUGCGCACUCCCCCAUCUGGAAUUCUCGGGUGCCAA,0.377

# Other studies, line by line
# Parent: viral docking peptide; KGVKRKLFAEDSS; partner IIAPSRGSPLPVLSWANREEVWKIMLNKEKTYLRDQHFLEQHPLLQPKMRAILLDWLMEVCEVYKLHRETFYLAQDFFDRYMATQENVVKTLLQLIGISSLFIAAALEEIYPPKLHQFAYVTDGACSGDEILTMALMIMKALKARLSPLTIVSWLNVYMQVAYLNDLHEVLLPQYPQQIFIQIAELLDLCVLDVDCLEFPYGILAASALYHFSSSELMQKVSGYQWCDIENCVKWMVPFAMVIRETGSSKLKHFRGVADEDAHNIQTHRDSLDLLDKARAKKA
Substitution,target,assay,test system,setting,scale,measurement,value
KGVPRKLFAEDSS [K4P],"CCNE1, cyclin fold, Cln2 fusion (human)","yeast growth competition, sequencing",yeast,strong parent motif,"baseline: not given, higher = stronger binding",normalised enrichment score,3.83

# Excerpt of the above (series 1):
Strand,log2 enrichment
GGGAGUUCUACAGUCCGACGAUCAAGUCCUGUGCUACACAUCGUAUGUACCGAAUCGGGCCCCGGGCCCCGGCCCCGGGAAAGUAUUAUGUUACGCCGUUCGGAUCUGCACUUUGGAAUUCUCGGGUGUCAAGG,-2.28
